# Measurements pooled from the literature.
# Every numbered part comes from another study and shows a few of its results, in no order.

# Block 1 — technique: RNA Bind-n-Seq; form: RNA; medium: in vitro; tested at: not given; reference: input RNA pool; direction: higher = stronger binding
# Target: RING finger protein unkempt homolog, zinc fingers 1-6, GST-SBP tag (UNK, Homo sapiens, UniProt Q9C0B0, residues 30-357)
# UniProt Q9C0B0, sequence (30-357, looked up): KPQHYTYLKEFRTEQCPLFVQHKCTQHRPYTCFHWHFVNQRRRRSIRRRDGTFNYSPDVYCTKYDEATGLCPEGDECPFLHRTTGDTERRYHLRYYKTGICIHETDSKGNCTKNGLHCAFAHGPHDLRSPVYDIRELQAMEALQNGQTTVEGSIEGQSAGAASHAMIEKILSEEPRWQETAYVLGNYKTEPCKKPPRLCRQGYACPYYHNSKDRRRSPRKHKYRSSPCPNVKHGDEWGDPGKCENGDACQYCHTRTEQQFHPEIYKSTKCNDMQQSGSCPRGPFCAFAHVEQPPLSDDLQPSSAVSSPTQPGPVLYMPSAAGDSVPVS
# Setting: RNA with constant flanks, human and mouse sites, ends assumed
# Shared flanks, not repeated: GGGAGUUCUACAGUCCGACGAUC … CAACAGAGGAUUGAGCAUCA
Sequence,bound/input enrichment
UGCACAUUCUGGGGUUGUUUUUGCUGCAUCAGAAGACAAACACUGGCACUCGUGGCUGUUUUUUUUUUUUUUUUUUUUUUUUUUUUCCUCCUUACAAGUCCAUAUGUGGUGCAGUGCUCA,1.5 ratio
UACGGCAAAGGCAAGAGUAACAGCAGCGCCGUCCCGUCCGACAGCCAGGCCCGGGAGAAGUUAGCACUCUACGUAUAUGAAUAUCUGCUCCAUGUAGGAGCUCAGAAAUCAGCUCAAACA,0.25 ratio
CCUGUUGGCAGAGCUGGGGUCCUGCUUUCUGAAAUCCUACACCUUCUAUGCAGACAAAUGAGCCAUAAGAAAGUAGGCGCCCUGUGGAGGGAGGCUGACCUCAGCUGGAAGGACUUUUUA,0.152 ratio
UAUUUACUCUCUUGGUCUUGGUAGCCCUAUUAUAUCAUUGCAGACACAGUGUUGUGCAUGUGUGUAUUGUAUAUGUGCACCAGCAUCAAACAUUGUGUAUCUGGAAGGAAAGCAGCAUGU,0.222 ratio
UCUUUUACCUCAUACUCACCUUAUGUAACAGAACUUAUAAUGGAAUCCAAUGUAGAGCUCAUAGCAAAAAAUGACUUGCGCUUUAUAGAUGCUGUCUAUAAGCUUCUUCGUGAUCAAUUU,0.308 ratio
GCUGGAUCUUCUAAAUACCAGUGGGGCAUUAUGAAAUCCCUUGGCCUGUCUGAUGAAGAGAUAGUAAAAUUUUCUGAAGCAGAACAUUGGCUUGAUUAUUUCCCGCCACUGGCUAUUCAG,0.154 ratio
UUCCUCCUGAGCCAUGAGCAGUUUGAGCUUACAACACAGACCUGGCAGGAAUUCCCAGAUGAAUCAAGAAAGUAGCUUGCAACCCCAGGAGUGUGAAUCUGAUGUCUCUGCAGAUCACUU,0.213 ratio
GUUAUCAUUUGUGUGGAAGGAAAAGAAUUUCCUUGCCAUAGAGCUGUGCUCUCAGCCUGUAGCAGCUACUUCAGAGCUAUGUUUUGUAAUGACCACAGGGAAAGCCGAGAAAUGUUGGUU,0.206 ratio
UAUUUUGUAAAUACUGUAUACCAUGUAUUAUGUGUACAUUGUUCAUACUUGAGAGGACAUUAUAGUUUUGUUAUGAAAGUAUGUAUUUUGCCCUGCAGCUGUGGUGGUGUUUUGUAUAUA,0.424 ratio
GCUGUCAUGGAGGUCCAUUUCCUAAACCAAAAUACUCAAGCCUUCUUCAGAGUGUUUGGCUCUUGCAGCAAAACAAUCGAGAUGCUAAGUGGGAGGAUUACAAUGUUUGUAGAGCGACCC,0.15 ratio
AACAACUUUCUUCAAACACUAAAUCAAGCUUGGAAUGAUCAUCAAACAGCCAUGGUGAUGAUUAGAGACAUAUUAAUGUAUAUGGACCGUGUAUAUGUACAACAGAAUAAUGUAGAAAAU,0.345 ratio

# Block 2 — technique: protein-binding microarray; form: double-stranded DNA, one strand shown; medium: in vitro; tested at: not given; direction: higher = stronger binding
# Target: Max-binding protein MNT, bHLH-zipper, MAX partner unstated (MNT, Homo sapiens, UniProt Q99583, residues 220-300)
# Setting: k-mer, scored over probes, only values ≥0.25
# Target sequence (chain): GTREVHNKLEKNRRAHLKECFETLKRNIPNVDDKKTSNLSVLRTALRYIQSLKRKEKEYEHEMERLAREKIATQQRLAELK
Sequence,E-score
CCTCCACG,0.329
CATGCAAA,0.254
AATACACG,0.341
CACCACCC,0.252
ACATGCGA,0.393
GCGATCAC,0.272
CATGCGGG,0.412
GCATGTAC,0.382
CACACACG,0.353
ATGTGATC,0.328
CATGCTAC,0.329
CGACATGC,0.346
CATGTGAA,0.412
ACCATGTG,0.484
ACGAGGGC,0.333
CATGTTAG,0.269
GTAGGGGA,0.255
CAGCATGG,0.431
CGCGCCCC,0.292

# Block 3 — technique: RNA Bind-n-Seq; form: RNA; medium: in vitro; tested at: 200 nM; setting: whole 134-nt RNA, ends assumed; together with: 150 mM LiCl; reference: input library; direction: higher = stronger binding; each molecule: 7-deaza-guanosine replaces G
# Target: Ras GTPase-activating protein-binding protein 1, full length (G3BP1, Homo sapiens, UniProt Q13283)
# UniProt Q13283, sequence (whole entry, looked up): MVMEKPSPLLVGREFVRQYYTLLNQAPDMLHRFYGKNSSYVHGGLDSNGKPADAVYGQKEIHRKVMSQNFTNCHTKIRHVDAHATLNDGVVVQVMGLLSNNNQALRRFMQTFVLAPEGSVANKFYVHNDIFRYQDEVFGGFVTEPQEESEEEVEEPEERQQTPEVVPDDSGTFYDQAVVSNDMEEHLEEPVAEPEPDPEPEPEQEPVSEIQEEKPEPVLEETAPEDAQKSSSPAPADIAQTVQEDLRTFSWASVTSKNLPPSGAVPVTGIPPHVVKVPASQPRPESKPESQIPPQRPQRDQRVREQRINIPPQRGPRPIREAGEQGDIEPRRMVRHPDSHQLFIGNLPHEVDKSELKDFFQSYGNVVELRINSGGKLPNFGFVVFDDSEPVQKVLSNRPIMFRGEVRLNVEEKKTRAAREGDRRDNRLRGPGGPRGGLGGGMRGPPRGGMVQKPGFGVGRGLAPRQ
# Shared flanks, not repeated: GGGAGUUCUACAGUCCGACGAUC … UGGAAUUCUCGGGUGUCAAGG
Sequence,log2 enrichment
UGGGAGGUGGAUUUUGUUUAUUUUUUUAGCUCAUUUGCAGGGGUGGGAAUUUUUUUUUAAUAUGUGUCAUGAAUAAAGUUGUUUUUGAAA,0.687
ACCAUGCAGGUGGGCAUCUUUGGGAAGUGGGGCAAGGGGGGGAUAGGGAGGGAAAUAACACUUUGGGAACAGGUGGUCCCAGGUCGUUUC,0.266
UCACCUGUUUACAGUGAAUCAGACGUCCCAAUAGAUGUGGAGACGGUCACAUCAACGCCUAUGCCACUCUAUGACAAUCAGAAGGCACGC,-1.5
GUCCUGUGCUACACAUCGUAUGUACCGAAUCAAACCCAAAUUUUUAAAUUUUUUUAAAAAAGUAUUAUGUUACGCCGUUCGGAUCUGCAC,-1.1
GUCCUGUGCUACACAUCGUAUGUACCGAAUCGGAAAAAAAGGUUUUUUUGGUUUUUGGAAAGUAUUAUGUUACGCCGUUCGGAUCUGCAC,-2.78
UGGUAUUCAUGGGUAGUUUGAAAUAUCCAGAUGAGAAUGGAUUUGAUGCCUUCCUGAAGAAGCAUGGGGGUAGUGAUAAUGCCUCAACUG,-1.29
GGCACCCUUUGAAGGGGAGGAUGAAGAUGAACUCUUCCAAUCCAUCAUGGAACACAACGUAGCCUAUCCCAAGUCUAUGUCCAAGGAAGC,0.172
CAAGUCCUGUGCUACACAUCGUAUGUACCGAAUCGGGUUUUUGGGAGGGAAAGGGAAAGUAUUAUGUUACGCCGUUCGGAUCUGCACUUC,0.00211
AAGUCCUGUGCUACACAUCGUAUGUACCGAAUCAAAUUUUUAAACCCAAACCCAAAAAAGUAUUAUGUUACGCCGUUCGGAUCUGCACUU,1.18
UCCUCAAGUCCUGUGCUACACAUCGUAUGUACCGAAUCGGUGGGUGGGGUGGAAAGUAUUAUGUUACGCCGUUCGGAUCUGCACUUCCAG,1.03
CACAGACAACACGCACCCACACAGAAAAAGAGGGAAGGGGUUGGGAUGGGGACAGGGUGCACAGCAGGGCGGGGUAGGACCCCAGCCCCU,0.272

# Block 4 — technique: RNA Bind-n-Seq; form: RNA; medium: in vitro; tested at: 20 nM; setting: 6-mer, flanks averaged, single round; together with: 150 mM KCl; reference: input library; direction: higher = stronger binding
# Target: TAR DNA-binding protein 43, full length, His tag (TARDBP, Homo sapiens, UniProt Q13148, residues 1-414)
Sequence,6-mer enrichment (R)
ACCCUA,0.63
AUUUGA,0.638
ACCCUU,0.661
UACAUA,0.587
GAAGUC,0.761
AUUCAA,0.566
GUCGUG,1.34
AGGAUA,0.781
CUGCCA,0.657
AUCGAG,0.86
UUAGCC,0.626
UUACGC,0.616
CUUGAA,0.685
UCCAGG,1.01
UAGGUU,0.698
CUUUCC,0.571
AGUGUC,0.764
UCGUUU,0.562
CCUGCA,0.659
UUAAGG,0.903
UCUUUC,0.56
ACGGAU,0.796
UCCCGU,0.61
UCUAGG,0.886
AGGUCU,0.711

# Block 5 — technique: RNA Bind-n-Seq; form: RNA; medium: in vitro; tested at: 365 nM; reference: no-protein control; direction: higher = stronger binding
# Target: RNA binding protein fox-1 homolog 2, RRM domain, GST-SBP tag (RBFOX2, Homo sapiens, UniProt O43251-10, residues 100-194)
# Setting: natural RNA segment, single round, ends assumed
# Shared flanks, not repeated: GGGAGUUCUACAGUCCGACGAUC … UGGAAUUCUCGGGUGCCAA
# Residues (chain): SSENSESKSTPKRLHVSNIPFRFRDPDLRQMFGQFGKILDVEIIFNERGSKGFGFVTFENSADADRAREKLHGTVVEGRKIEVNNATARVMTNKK
Sequence,RBNS enrichment (R)
ACUUGAAAAGUGCUGGAGUAACAAAAUAUCUCAGUUGGACCAUCCUUAACUUGAUUGAACUGUCUAGGAACUUUACAGAUUGUUCUGCAGUUCUCUCUUCUUUUCCUCAG,0.342
CUAAAUCUGCUGUGCAGGUUGGGCUGGUCAUACUGUCAUGAUUUCAUUAACAGCCUGGGUGAACAUGGCUGGGAGUAAAGGGCUUGCUCUCCUGCAUGUUGACAUGACGG,6.41
UCACCGCUGCCUGACCACCCAUGAACAAGACUCUUGUCCAGGAUUUCCCUGUGCUUGGCUCUCCAAAUUUCUGCCCAUCCAUCCUGCCCCUCACACAGUAGUACUAGUUG,0.621
ACUAGAUCUCAGAAGUUUUGAAAAAUAGCAAAGAAGACUGGAUUUGGAAAGCAUGGUCUACAAUUGGUUGUUAAAUUCUGAAGCUAUGAAGAAUAAAUGUUUCAACUUUG,24.8
CUGGAAUGCAGAUGACAGUAUGGAAAGAAAGAAUAAUGAUUCUAUCUAAUAGGAAAGGAUUUCUUCUUUCUUUUUUAAAGAGUGGGUGGAUUUUCUCCCUUUUGUUUUGC,0.799
UGGCACUCCUCUUCUGAGGGGUUGCCCCUGUCCCUAUCUUAGGGGAGCUUGUCUCUUCCAUAGACCUCCAAAGCUUCAGGGAAGGGAAAACCCAGGGUAUCUUCCCUCAG,0.279
UUUCAGAAUGUGGAAGUUACUAGGCCUGUCAAGCCAUCACUUCACCCCAAGAUCUCCAGUUUUAGAAGAGACCUGCACAUAAGAGGACUUCAUGUCAAGAUCACUACAAC,0.302
UUUACUCAAACUCUGUUGGGGCAUUUUACUAACCUUGUUCCCUUUUUGGCCUGUAAGACACUUUAGAGAUUCCUAACAGAGUUUACUGUUGUUUAGAAAUUUGCAAGGGC,0.601
AGCUCUGUGCACCUGUGUGUGAUACCUCACACUCGUGCUUUGUCCUCCACUGUCUAUGUAGGUUGUGGGUGUGGGGAGGUUGAGGUAGAGGGAAGAGGGUCGAGAGGGUU,0.666
UCAGCGGAUGUUCACUCUGGCCUGCCGUUCCCCGUGGCAUGCGGGGUGAGGGUGGCUUUCUUCCAGCCCCAAAUGAGACGAGUCUGUGUCAUCAUUGAAACUGCUUUUCG,0.64
CAGAGAGGGGGGUUCAAAGACCCCCGGAGGGGGCCUACUCUGUGUUGGUGGGAAUGGAACUGGGCCGAUGUCCUUCAUUCAGCCUGUGCCUUUCUUGGGGUUUCUUUUCU,0.581
UUCGGGCAUAAAAUCUUUAUCUCCAGUUCAUAUAAUCUUGAGUUUUAGAUAUACACACAUGCGUAACAGCUGACAGUUUUUCACAAGUACACCCACCUGUAAAUACUGUA,0.259

# Some of these lines once more (block 2):
Sequence,E-score
GCATGTAC,0.382
ACGAGGGC,0.333
ACCATGTG,0.484
CAGCATGG,0.431
CATGCTAC,0.329
CGACATGC,0.346
CATGCGGG,0.412
CACCACCC,0.252
CATGTGAA,0.412
CCTCCACG,0.329
AATACACG,0.341
